Assay results pooled from the literature.
Parts stem from different laboratories: compare values within a part only. Several values in a cell are separate wells, animals, samples, runs or records.
Sequence of UniProt Q08881 (whole entry, looked up): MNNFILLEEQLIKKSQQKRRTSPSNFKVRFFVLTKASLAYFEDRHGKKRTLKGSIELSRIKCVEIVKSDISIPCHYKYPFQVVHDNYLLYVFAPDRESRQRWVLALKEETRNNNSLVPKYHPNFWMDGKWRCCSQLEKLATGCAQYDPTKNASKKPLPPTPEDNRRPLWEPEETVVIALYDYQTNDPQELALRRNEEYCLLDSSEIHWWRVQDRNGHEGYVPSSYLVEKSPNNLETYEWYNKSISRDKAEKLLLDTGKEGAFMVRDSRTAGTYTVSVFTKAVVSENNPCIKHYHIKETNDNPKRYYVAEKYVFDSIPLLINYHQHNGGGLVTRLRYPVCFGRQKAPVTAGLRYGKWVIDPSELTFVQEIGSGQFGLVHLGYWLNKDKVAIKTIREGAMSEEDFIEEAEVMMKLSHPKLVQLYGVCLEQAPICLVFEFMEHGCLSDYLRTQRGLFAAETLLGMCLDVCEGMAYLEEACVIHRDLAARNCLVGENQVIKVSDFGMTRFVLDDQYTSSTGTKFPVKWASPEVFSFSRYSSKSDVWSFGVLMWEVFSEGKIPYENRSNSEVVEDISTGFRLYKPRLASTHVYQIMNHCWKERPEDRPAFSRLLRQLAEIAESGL
Sequence of UniProt Q06187 (whole entry, looked up): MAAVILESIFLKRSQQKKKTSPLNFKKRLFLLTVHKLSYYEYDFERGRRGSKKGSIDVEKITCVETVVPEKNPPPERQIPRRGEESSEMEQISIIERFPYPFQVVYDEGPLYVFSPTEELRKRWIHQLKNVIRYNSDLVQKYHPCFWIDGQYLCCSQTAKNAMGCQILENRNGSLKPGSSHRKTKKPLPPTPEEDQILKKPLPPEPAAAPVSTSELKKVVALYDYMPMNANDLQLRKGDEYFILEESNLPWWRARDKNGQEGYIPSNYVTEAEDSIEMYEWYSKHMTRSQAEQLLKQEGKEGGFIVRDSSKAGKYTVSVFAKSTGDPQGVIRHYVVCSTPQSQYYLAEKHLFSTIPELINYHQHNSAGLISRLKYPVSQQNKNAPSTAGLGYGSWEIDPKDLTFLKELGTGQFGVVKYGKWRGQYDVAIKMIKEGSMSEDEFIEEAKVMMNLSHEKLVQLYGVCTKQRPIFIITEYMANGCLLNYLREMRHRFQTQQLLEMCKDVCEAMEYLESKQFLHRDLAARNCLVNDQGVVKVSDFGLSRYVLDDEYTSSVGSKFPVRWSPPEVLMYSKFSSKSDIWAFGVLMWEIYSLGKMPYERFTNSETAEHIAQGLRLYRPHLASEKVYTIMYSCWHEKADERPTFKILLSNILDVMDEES
Sequence of UniProt Q9Y243 (whole entry, looked up): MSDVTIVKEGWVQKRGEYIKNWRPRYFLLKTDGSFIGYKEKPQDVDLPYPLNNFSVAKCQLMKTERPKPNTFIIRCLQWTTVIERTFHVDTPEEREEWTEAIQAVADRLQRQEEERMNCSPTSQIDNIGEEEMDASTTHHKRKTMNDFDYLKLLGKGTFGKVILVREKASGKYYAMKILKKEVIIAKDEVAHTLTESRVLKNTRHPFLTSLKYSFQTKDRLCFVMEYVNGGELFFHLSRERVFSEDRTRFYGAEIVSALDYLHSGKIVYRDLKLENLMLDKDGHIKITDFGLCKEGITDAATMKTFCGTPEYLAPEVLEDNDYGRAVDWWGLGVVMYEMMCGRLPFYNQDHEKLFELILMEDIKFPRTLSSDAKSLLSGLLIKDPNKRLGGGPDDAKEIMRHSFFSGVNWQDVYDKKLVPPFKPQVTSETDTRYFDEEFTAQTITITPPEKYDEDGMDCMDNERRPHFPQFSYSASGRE
Sequence of UniProt Q5S007 (whole entry, looked up): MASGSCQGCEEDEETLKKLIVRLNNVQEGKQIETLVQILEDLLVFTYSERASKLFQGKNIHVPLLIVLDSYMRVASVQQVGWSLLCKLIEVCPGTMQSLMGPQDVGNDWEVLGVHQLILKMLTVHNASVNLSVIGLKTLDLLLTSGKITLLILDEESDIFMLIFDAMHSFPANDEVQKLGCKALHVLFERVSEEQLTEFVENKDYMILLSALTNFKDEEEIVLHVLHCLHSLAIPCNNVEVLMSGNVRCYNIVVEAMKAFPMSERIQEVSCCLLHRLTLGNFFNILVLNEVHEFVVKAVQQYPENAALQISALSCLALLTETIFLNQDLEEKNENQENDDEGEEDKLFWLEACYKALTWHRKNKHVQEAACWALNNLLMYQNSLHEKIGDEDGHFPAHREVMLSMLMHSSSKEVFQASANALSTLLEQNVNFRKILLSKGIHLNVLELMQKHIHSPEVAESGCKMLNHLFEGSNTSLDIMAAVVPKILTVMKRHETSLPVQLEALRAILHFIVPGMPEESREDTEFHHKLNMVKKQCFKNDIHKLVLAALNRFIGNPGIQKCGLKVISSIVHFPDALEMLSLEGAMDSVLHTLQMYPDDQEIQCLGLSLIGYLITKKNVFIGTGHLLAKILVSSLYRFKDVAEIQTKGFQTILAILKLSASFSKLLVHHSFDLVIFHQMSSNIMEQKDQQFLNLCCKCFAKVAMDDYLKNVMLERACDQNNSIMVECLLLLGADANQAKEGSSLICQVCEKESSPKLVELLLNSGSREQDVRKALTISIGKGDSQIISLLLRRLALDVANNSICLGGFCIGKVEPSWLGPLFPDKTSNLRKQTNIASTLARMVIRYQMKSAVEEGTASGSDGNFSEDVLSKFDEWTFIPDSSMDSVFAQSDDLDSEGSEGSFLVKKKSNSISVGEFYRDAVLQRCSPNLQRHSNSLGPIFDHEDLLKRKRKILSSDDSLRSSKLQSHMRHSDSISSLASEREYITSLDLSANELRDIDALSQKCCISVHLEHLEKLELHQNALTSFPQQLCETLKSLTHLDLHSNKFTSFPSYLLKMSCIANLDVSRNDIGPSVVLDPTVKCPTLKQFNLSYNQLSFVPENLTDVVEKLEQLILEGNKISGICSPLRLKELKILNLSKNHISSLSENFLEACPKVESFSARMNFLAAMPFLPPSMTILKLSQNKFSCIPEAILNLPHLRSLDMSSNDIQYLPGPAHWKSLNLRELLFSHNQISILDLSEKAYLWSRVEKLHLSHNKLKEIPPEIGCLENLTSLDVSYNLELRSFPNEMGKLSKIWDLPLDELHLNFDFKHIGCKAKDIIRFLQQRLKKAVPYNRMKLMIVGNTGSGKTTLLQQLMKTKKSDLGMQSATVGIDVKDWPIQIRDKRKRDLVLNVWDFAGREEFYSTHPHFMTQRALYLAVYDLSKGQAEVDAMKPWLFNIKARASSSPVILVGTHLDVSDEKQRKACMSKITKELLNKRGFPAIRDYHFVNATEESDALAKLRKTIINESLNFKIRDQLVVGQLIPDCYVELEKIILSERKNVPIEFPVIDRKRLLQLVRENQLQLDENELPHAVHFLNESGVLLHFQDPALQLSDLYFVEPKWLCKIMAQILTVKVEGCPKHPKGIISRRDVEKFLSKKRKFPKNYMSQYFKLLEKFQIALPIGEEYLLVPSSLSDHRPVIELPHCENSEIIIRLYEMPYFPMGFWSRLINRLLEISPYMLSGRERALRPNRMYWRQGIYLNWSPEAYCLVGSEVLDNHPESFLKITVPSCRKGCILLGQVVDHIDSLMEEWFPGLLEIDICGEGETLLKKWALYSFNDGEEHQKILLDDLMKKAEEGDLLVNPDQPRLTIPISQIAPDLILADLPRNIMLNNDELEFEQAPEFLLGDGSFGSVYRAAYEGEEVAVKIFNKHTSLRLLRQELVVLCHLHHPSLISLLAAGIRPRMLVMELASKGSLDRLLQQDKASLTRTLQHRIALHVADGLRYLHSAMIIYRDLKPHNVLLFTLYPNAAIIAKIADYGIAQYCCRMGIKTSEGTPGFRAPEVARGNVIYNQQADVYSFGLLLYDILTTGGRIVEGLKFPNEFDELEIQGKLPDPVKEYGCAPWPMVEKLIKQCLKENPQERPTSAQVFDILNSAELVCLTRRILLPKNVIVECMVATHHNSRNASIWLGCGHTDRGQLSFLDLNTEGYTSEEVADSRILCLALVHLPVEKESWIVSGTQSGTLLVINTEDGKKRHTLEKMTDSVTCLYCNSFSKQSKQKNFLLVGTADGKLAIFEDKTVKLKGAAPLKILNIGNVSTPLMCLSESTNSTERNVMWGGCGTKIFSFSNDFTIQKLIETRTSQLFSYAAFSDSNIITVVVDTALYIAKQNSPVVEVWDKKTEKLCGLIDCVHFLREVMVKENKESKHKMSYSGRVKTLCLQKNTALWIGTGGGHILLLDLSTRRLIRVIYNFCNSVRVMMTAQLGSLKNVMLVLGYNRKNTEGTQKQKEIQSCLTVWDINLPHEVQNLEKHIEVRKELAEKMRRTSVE
Sequence of UniProt P41743 (whole entry, looked up): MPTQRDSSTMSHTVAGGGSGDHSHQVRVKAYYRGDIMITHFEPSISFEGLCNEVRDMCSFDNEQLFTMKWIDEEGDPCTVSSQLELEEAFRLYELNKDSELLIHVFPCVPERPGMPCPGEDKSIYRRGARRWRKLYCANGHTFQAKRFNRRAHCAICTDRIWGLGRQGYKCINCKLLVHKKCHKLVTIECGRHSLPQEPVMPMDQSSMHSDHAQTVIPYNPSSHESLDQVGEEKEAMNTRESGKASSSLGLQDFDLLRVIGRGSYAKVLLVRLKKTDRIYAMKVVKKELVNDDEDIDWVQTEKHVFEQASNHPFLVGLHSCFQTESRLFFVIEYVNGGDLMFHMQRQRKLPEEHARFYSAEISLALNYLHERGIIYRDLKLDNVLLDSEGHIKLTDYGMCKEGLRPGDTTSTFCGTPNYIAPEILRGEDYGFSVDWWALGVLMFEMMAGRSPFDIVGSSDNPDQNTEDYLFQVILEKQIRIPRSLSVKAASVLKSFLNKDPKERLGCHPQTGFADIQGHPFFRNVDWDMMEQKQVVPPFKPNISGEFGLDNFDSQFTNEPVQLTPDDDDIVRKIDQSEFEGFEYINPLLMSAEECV

Block 1
Compound: C[C@H](c1cccc(C#N)c1)n1cc(Cl)cc(C(N)=O)c1=N
Effect on: cell-free assay
Technique: competition with immobilised ligand
Concentration: 1 µM
target | remaining binding
ALK (Homo sapiens, UniProt Q9UM73, L1196M) | 76%
PHKG1 (Homo sapiens, UniProt Q16816) | 100%
PIP4K2C (Homo sapiens, UniProt Q8TBX8) | 100%
ITK (Homo sapiens, UniProt Q08881) | 90%
DSTYK (Homo sapiens, UniProt Q6XUX3) | 83%
GRK4 (Homo sapiens, UniProt P32298) | 100%
PAK5 (Homo sapiens, UniProt Q9P286) | 100%
MAP4K1 (Homo sapiens, UniProt Q92918) | 100%
STK10 (Homo sapiens, UniProt O94804) | 100%
LATS2 (Homo sapiens, UniProt Q9NRM7) | 84%
MAP3K12 (Homo sapiens, UniProt Q12852) | 100%
ACVR2B (Homo sapiens, UniProt Q13705) | 100%
RIOK2 (Homo sapiens, UniProt Q9BVS4) | 74%
MAP3K15 (Homo sapiens, UniProt Q6ZN16) | 81%
Aurora kinase C (AURKC, Homo sapiens, UniProt Q9UQB9) | 91%
FLT3 (Homo sapiens, UniProt P36888, K663Q) | 100%
PIK3CA (Homo sapiens, UniProt P42336, H1047Y) | 95%

Block 2
Cell line: mouse MPNST tumor cells
Technique: high-content nuclear imaging
Refers to: cell number
Concentration: 10 µM
Time: 12 h
Notes: mean of 2 replicates
Relative to: plate mean
Reading: higher = more cells
Compound | nuclei count
Cc1ccc(-c2ncc[nH]2)cc1NC(=O)c1ccc(OCc2ccccn2)cc1 | 4.66 z-score
O=C1Nc2ccc(Cl)cc2[C@@](C#CC2CC2)(C(F)(F)F)O1 | 1.69 z-score and -0.791 z-score
CC(=O)OCC(=O)[C@@]1(OC(C)=O)[C@@H](C)C[C@H]2[C@@H]3C[C@H](F)C4=CC(=O)C=C[C@]4(C)[C@@]3(F)[C@@H](O)C[C@@]21C | 2.22 z-score
CC(C)CC(=O)N[C@H](C(=O)N[C@H](C(=O)N[C@@H](CC(C)C)[C@@H](O)CC(=O)N[C@@H](C)C(=O)N[C@@H](CC(C)C)[C@@H](O)CC(=O)O)C(C)C)C(C)C | 0.0871 z-score
CCC(=O)NCC[C@@H]1CCc2ccc3c(c21)CCO3 | 0.858 z-score and 1.4 z-score
O=C1NCCCc2c1oc1ccc(O)cc21 | 4.38 z-score
CCOc1ccc(Cc2nccc3cc(OCC)c(OCC)cc23)cc1OCC | 1.75 z-score
Cc1cc(NC(=O)Nc2ccc(N(C)C)cc2)c2cc(F)cc(F)c2n1 | 0.157 z-score
CCCCn1c(=O)c2[nH]c(C34CC5CC(CC3C5)C4)nc2n(CCCO)c1=O | 4.89 z-score
Brc1ccc(CCC2(Cn3ccnc3)OCCO2)cc1 | 0.666 z-score
CN1CCN(C2CCC(n3cc(-c4ccc(Oc5ccccc5)cc4)c4c(N)ncnc43)CC2)CC1 (stereo not drawn) | -6.33 z-score
C[C@H]1O[C@H](O[C@H]2[C@H](O)[C@@H](O)[C@@H](O[C@H]3[C@H](O)[C@@H](O)C(O)O[C@@H]3CO)O[C@@H]2CO)[C@H](O)[C@@H](O)[C@@H]1N[C@H]1C=C(CO)[C@@H](O)[C@H](O)[C@H]1O (stereo partly drawn) | 0.81 z-score and 1.71 z-score and 2.16 z-score
COc1ccc2cc(CCC(C)=O)ccc2c1 | 2.13 z-score
COc1nc(N)nc2c1ncn2[C@@H]1O[C@H](CO)[C@@H](O)[C@@H]1O | -0.228 z-score and 1.54 z-score

Block 3
Compound: CC(=O)N[C@@H](Cc1c[nH]c2ccccc12)C(=O)N[C@@H](CCC(=O)C=[N+]=[N-])C(=O)OC(C)C
Route: subcutaneous
Dose: 0.3 mg/kg/day DON equivalent
Time: 5 days
Reading: higher = more metabolite
test | test system | metabolite peak area
UPLC-MS/MS, refers to: thymine | C57BL/6 CES1-/- mice, EL4 tumour | 1.02e+06 a.u. and 1.61e+06 a.u. and 1.34e+06 a.u. and 1.54e+06 a.u. and 2.31e+06 a.u. and 1.21e+06 a.u.
UPLC-MS/MS metabolomics, refers to: cytidine | EL4, C57BL/6 CES1-/- mice, EL4 tumour, tumour | 4.14e+08 a.u. and 4.28e+08 a.u. and 4.84e+08 a.u. and 2.32e+08 a.u. and 3.62e+08 a.u. and 1.85e+08 a.u.
UPLC-MS/MS, refers to: 4-vinylphenol sulfate | C57BL/6 CES1-/- mice, EL4 tumour | 50200 a.u. and 195000 a.u. and 182000 a.u. and 97100 a.u. and 60600 a.u. and 43600 a.u.
UPLC-MS/MS metabolomics, refers to: galactose 1-phosphate | EL4, C57BL/6 CES1-/- mice, EL4 tumour, tumour | 6.22e+06 a.u. and 7.26e+06 a.u. and 1.01e+07 a.u. and 4.91e+06 a.u. and 6.75e+06 a.u. and 7.47e+06 a.u.
UPLC-MS/MS metabolomics, refers to: dihydroorotate | EL4, C57BL/6 CES1-/- mice, EL4 tumour, tumour | 667000 a.u. and 1.26e+06 a.u. and 463000 a.u. and 167000 a.u. and 395000 a.u. and 614000 a.u.
UPLC-MS/MS, refers to: urate | C57BL/6 CES1-/- mice, EL4 tumour | 2.81e+06 a.u. and 2.94e+06 a.u. and 4.5e+06 a.u. and 7.95e+06 a.u. and 2.2e+06 a.u. and 4.41e+06 a.u.
UPLC-MS/MS, refers to: threonine | C57BL/6 CES1-/- mice, EL4 tumour | 1.64e+09 a.u. and 1.79e+09 a.u. and 1.47e+09 a.u. and 1.37e+09 a.u. and 1.17e+09 a.u. and 1.71e+09 a.u.
UPLC-MS/MS, refers to: xanthine | C57BL/6 CES1-/- mice, EL4 tumour | 3.56e+07 a.u. and 4.12e+07 a.u. and 5.3e+07 a.u. and 4.58e+07 a.u. and 3.47e+07 a.u. and 3.5e+07 a.u.

Block 4
Compound: Nc1nc(Nc2ccc(S(N)(=O)=O)cc2)nn1C(=O)c1c(F)cccc1F
Effect on: enzyme activity
Action: inhibitor
Concentration: 0.5 µM
Relative to: control
target | remaining activity [%]
CSNK1A1 (Homo sapiens, UniProt P48729) | 95.1
LRRK2 (Homo sapiens, UniProt Q5S007) | 48.3
PRKCI (Homo sapiens, UniProt P41743) | 87.6
Cyclin-dependent kinase 9, with cyclin T1 (CDK9, Homo sapiens, UniProt P50750) | 27.6
AKT3 (Homo sapiens, UniProt Q9Y243) | 95
BTK (Homo sapiens, UniProt Q06187) | 87.1
IRAK4 (Homo sapiens, UniProt Q9NWZ3) | 151
PRKCD (Homo sapiens, UniProt Q05655) | 81.2
LYN (Homo sapiens, UniProt P07948) | 80.5

Excerpt of the above (block 1):
target | remaining binding
ITK (Homo sapiens, UniProt Q08881) | 90%
DSTYK (Homo sapiens, UniProt Q6XUX3) | 83%
GRK4 (Homo sapiens, UniProt P32298) | 100%
PAK5 (Homo sapiens, UniProt Q9P286) | 100%
MAP4K1 (Homo sapiens, UniProt Q92918) | 100%
STK10 (Homo sapiens, UniProt O94804) | 100%
LATS2 (Homo sapiens, UniProt Q9NRM7) | 84%
